# Assay results gathered from unrelated publications.
# Every numbered part comes from another study and shows a few of its results, in no order. Substitutions count along the parent as printed.

# Series 1 — target: JUN, bZIP domain (human); method: DHFR protein complementation; medium: yeast; reference: wild-type JUN-FOS pair; direction: higher = stronger binding
# Notes: single substitutions, most at no-binding floor
# Starting sequence: JUN, bZIP domain (human); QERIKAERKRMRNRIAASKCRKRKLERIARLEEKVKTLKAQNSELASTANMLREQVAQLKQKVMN; partner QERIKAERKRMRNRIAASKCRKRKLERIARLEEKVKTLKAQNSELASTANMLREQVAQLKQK
Change,binding fitness [natural log]
K34C,-0.119
V56H,-1.01
K36H,-0.465

# Series 2 — method: RNA Bind-n-Seq; molecule type: RNA; medium: in vitro; concentration: 200 nM; notes: whole 134-nt RNA, ends assumed; added: 150 mM LiCl; reference: input library; direction: higher = stronger binding; each molecule: 7-deaza-guanosine replaces G
# Target: Fragile X messenger ribonucleoprotein 1, C-terminal low-complexity region (Fmr1, Mus musculus, UniProt P35922)
Sequence,log2 enrichment
GGGAGUUCUACAGUCCGACGAUCCAAGUCCUGUGCUACACAUCGUAUGUACCGAAUCGGGUUUGGGAAAGGGAAAGGGAAAGUAUUAUGUUACGCCGUUCGGAUCUGCACUUCUGGAAUUCUCGGGUGUCAAGG,-0.449
GGGAGUUCUACAGUCCGACGAUCAAGUCCUGUGCUACACAUCGUAUGUACCGAAUCGGGUUUUGGGGUUUUGGUUUUGGGAAAGUAUUAUGUUACGCCGUUCGGAUCUGCACUUGGAAUUCUCGGGUGUCAAGG,-1.47
GGGAGUUCUACAGUCCGACGAUCCAAGUCCUGUGCUACACAUCGUAUGUACCGAAUCGGUUUGGGUUUGGGGUUUGGGGAAAGUAUUAUGUUACGCCGUUCGGAUCUGCACUUUGGAAUUCUCGGGUGUCAAGG,-1.56
GGGAGUUCUACAGUCCGACGAUCUUACUAGAAAAGGCAGAAGCCCGUGAACGUGAAAGAGAAAAAGAAGAGGCUCGGAAGAUGAAACGAAAAGAAUCUGCAUUUAAGAGUAUGUGGAAUUCUCGGGUGUCAAGG,-2.61

# Series 3 — method: protein binding microarray; molecule type: double-stranded DNA, one strand shown; medium: in vitro; concentration: not given; reference: not given; direction: higher = stronger binding
# Target: Histone acetyltransferase KAT6A, winged helix 1, GST fusion (KAT6A, Homo sapiens, UniProt Q92794, residues 1-85)
# Notes: 8-mer, flanks averaged, mean of 2 arrays, mostly near background
# Residues (chain): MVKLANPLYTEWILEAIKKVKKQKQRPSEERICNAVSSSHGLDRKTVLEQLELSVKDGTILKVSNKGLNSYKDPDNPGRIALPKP
Sequence,E-score
CCGTCTAA,0.0667
TTTATAAA,0.143
CTGGAGTC,-0.268

# Single results of other studies
Molecule,target,assay,system,setting,how to read,endpoint,result
"PhoQ, residues 284 288 289 292 302 303 ALVSVA","PhoP, residues 12 14 15 18 19 FWNTL (Escherichia coli, UniProt P23836)","Sort-seq, item: YFP reporter",E. coli,"PhoQ-PhoP variant library, added: 10 µM Mg2+","reference: high Mg2+ state, higher = stronger signaling",fold induction,1.93
